Published values gathered from unrelated publications.
± marks the error that the study gave.
CDK2 with cyclin A2: Cyclin-dependent kinase 2, with cyclin A2 (CDK2, Homo sapiens, UniProt P24941)
SRMS: Tyrosine-protein kinase Srms (SRMS, Homo sapiens, UniProt Q9H3Y6)
Sequence of UniProt Q9H3Y6 (whole entry, looked up): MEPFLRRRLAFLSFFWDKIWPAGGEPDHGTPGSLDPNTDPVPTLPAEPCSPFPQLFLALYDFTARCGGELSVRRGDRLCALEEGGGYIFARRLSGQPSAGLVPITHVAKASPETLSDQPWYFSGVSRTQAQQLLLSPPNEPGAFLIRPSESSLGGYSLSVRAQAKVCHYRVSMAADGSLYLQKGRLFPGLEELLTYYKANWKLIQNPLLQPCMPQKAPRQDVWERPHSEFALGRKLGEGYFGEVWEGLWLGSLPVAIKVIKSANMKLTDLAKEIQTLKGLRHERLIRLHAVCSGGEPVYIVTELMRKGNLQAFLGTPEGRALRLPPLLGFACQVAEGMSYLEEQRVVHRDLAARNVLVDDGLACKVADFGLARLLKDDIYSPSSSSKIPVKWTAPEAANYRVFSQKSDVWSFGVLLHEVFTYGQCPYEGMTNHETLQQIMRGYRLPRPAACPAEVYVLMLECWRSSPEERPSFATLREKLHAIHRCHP
PRKACB: cAMP-dependent protein kinase catalytic subunit beta (PRKACB, Homo sapiens, UniProt P22694)
PRKD1: Serine/threonine-protein kinase D1 (PRKD1, Homo sapiens, UniProt Q15139)
Sequence of UniProt Q15139 (whole entry, looked up): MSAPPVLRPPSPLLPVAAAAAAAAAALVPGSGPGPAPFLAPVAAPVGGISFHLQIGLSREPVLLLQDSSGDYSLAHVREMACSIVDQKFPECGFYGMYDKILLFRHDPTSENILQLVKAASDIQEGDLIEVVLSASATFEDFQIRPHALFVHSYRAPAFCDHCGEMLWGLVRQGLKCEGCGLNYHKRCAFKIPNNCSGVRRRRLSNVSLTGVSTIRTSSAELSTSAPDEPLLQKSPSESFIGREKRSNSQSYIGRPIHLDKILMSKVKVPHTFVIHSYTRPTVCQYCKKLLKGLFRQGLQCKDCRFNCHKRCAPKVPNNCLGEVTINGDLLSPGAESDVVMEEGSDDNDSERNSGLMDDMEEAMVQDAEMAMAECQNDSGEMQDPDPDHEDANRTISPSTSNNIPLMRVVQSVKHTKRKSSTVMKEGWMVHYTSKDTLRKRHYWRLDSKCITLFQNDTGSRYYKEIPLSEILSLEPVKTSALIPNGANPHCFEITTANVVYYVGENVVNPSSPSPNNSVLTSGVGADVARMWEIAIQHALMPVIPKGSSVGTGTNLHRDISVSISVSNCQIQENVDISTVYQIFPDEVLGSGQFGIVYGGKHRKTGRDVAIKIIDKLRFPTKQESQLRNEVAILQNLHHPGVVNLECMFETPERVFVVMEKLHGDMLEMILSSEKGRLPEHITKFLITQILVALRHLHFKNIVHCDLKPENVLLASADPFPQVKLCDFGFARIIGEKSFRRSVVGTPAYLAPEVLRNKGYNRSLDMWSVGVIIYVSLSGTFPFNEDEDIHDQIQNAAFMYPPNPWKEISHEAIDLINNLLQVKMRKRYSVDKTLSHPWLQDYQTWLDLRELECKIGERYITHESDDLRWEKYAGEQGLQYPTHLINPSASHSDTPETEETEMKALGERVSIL
Sequence of UniProt Q8N568 (whole entry, looked up): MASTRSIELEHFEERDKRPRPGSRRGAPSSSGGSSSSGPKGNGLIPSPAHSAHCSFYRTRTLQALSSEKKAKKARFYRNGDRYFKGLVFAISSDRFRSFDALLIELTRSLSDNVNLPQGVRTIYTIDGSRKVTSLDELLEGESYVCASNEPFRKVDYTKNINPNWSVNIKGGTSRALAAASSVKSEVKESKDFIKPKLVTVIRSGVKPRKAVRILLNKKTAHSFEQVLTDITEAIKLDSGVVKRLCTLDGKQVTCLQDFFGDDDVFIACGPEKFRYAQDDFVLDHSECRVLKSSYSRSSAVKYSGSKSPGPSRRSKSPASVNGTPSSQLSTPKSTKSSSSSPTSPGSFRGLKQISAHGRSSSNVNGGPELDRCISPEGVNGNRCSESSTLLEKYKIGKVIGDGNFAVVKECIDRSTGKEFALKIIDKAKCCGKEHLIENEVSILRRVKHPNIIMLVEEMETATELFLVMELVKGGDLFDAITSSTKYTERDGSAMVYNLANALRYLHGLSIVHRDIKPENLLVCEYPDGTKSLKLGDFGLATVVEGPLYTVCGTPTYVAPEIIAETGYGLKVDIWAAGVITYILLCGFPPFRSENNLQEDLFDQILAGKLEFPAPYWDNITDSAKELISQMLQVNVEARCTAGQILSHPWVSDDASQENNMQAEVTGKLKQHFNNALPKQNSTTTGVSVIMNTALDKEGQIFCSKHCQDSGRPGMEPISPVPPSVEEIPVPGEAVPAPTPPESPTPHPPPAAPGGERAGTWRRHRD
Sequence of UniProt Q9H2X6 (whole entry, looked up): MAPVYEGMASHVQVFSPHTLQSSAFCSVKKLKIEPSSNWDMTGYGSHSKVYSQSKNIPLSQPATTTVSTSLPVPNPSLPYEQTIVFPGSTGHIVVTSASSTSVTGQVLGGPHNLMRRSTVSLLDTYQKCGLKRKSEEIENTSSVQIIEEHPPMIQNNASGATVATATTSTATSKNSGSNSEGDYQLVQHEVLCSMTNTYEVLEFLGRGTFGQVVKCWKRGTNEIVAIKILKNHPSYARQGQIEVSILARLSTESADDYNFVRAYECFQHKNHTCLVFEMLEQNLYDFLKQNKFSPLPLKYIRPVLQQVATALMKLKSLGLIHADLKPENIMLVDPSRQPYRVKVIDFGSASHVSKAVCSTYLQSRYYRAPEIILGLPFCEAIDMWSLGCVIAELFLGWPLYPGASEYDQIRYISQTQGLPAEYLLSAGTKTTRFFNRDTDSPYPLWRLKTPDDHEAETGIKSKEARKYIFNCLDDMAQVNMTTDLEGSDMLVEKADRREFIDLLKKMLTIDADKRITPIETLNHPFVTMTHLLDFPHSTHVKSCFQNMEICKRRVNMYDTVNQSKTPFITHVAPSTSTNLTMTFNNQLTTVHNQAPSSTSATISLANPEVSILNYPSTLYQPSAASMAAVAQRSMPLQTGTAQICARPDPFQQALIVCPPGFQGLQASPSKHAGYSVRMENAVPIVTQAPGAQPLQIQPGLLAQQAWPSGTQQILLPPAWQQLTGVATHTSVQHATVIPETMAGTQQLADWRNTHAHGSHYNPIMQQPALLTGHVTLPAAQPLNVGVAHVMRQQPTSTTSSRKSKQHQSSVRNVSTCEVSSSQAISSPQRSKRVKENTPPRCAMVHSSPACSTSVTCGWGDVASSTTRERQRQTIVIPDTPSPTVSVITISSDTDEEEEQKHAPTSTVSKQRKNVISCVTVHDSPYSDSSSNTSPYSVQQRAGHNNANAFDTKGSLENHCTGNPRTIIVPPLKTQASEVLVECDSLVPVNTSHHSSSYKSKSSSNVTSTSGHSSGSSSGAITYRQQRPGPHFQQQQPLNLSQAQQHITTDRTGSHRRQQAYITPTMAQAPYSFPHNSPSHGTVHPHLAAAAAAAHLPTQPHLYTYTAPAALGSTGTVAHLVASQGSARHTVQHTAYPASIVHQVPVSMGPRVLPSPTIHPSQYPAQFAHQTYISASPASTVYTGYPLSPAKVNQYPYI
Sequence of UniProt Q9UL54 (whole entry, looked up): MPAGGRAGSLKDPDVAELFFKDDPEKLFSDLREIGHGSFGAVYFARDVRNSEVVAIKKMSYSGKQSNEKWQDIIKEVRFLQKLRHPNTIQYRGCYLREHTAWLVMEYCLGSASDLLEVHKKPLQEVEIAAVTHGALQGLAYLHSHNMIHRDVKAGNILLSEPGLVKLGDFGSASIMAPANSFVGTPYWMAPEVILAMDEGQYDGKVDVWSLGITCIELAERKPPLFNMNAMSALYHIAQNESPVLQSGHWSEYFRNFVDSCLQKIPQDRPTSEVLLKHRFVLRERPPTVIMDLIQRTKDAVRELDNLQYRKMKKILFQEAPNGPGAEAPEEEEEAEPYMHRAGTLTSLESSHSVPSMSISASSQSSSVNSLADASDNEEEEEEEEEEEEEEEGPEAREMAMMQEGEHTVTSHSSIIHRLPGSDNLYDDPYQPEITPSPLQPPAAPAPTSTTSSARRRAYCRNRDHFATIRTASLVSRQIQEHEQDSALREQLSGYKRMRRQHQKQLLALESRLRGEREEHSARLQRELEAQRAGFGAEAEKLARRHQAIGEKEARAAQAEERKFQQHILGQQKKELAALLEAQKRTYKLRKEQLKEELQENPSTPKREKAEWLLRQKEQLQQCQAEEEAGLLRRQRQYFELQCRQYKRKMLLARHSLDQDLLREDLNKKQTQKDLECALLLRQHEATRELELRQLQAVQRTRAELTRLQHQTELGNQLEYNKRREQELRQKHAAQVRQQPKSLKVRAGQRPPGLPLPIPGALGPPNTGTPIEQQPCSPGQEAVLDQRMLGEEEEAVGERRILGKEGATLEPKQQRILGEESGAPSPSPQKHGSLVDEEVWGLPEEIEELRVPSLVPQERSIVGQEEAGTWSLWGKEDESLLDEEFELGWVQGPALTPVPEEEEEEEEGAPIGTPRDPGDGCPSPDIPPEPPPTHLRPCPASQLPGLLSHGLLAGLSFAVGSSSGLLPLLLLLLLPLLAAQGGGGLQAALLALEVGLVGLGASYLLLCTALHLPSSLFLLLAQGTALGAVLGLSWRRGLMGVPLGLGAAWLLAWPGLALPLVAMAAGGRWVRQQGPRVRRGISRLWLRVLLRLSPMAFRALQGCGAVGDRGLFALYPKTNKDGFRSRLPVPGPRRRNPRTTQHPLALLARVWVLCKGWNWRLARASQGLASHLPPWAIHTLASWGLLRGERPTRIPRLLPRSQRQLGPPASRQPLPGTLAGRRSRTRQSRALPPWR
Sequence of UniProt P0AEE8 (whole entry, looked up): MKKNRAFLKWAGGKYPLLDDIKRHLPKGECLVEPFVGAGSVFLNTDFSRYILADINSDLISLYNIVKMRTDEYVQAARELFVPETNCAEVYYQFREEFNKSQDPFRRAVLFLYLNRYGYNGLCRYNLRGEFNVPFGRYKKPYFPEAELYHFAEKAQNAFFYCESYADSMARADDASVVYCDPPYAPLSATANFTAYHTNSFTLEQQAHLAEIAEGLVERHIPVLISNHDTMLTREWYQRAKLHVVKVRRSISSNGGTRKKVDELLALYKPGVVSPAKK

Compound	target	test	system	conditions	how to read	remaining activity
C=CC(=O)N1CCC[C@@H](n2nc(-c3ccc(Oc4ccccc4)cc3)c3c(N)ncnc32)C1	EPHA3 (Homo sapiens, UniProt P29320)	–	–	10 µM	–	81.5%
Cc1cc(NC(=O)c2cccc(NC(=O)/C=C/CN(C)C)c2)ccc1Nc1nccc(-c2cccnc2)n1	MAPK9 (Homo sapiens, UniProt P45984)	enzyme activity, inhibitor	–	0.5487 µM, unit not given	baseline: vehicle	0.0861
COc1cc(N2CCN(C)CC2)ccc1Nc1nc(N)n(C(=O)NCc2c(Cl)cccc2Cl)n1	DCLK2 (Homo sapiens, UniProt Q8N568)	enzyme activity	–	10 µM	baseline: control	0.6%
CC(=O)Nc1c(N)nc(SCC(=O)N/N=C/c2ccc([N+](=O)[O-])cc2)[nH]c1=O	CDK2 with cyclin A2	kinase activity	–	0.2 nM	–	98.1%
C=CC(=O)N1CCC([C@@H]2CCNc3c(C(N)=O)c(-c4ccc(Oc5ccccc5)cc4)nn32)CC1	SRMS	kinase activity, inhibitor, HotSpot radiometric	–	100 nM, added: ATP 10 µM	–	94.9%
COc1cc(Nc2ncc3c(n2)-c2ccc(Cl)cc2C(c2c(F)cccc2OC)=NC3)ccc1C(=O)O	GRK5	kinase activity	–	1 µM	–	99%
O=C(c1ccc(F)cc1)C1CCN(CCn2c(=O)[nH]c3ccccc3c2=O)CC1	Diacylglycerol kinase zeta (Dgkz, Rattus norvegicus, UniProt O08560)	kinase activity, inhibitor	HEK293T cell lysate	50 µM, unit not given, added: DAG liposomes, [γ32P]ATP	baseline: DMSO vehicle	0.93
NC/C(=C\F)COc1cccc(Cn2c(=S)[nH]c(=O)c3[nH]cnc32)c1	Peroxidasin homolog (PXDN, Homo sapiens, UniProt Q92626)	Amplex UltraRed	–	0.3125 µM	baseline: control	99.8%
O=C(O)c1ccc(Nc2ncc3c(n2)-c2ccc(Cl)cc2C(c2c(F)cccc2F)=NC3)cc1	Blk(m)	kinase activity	–	1 µM	–	53%
COc1ccc(F)cc1C(=O)NCc1ccc(-c2nn([C@@H](C)C(F)(F)F)c(N)c2C(N)=O)cc1	SRMS	kinase activity, inhibitor, HotSpot radiometric	–	1000 nM, added: ATP at Km	–	102 ± 2.6%
Nc1ncnc2c1ncn2C1OC(CSCCNCc2cccc(-c3ccccc3)c2)C(O)C1O (centres unmarked)	dam (Escherichia coli K-12, UniProt P0AEE8)	–	–	10 µM	–	71.1%
CNc1ncc2c(/C=C/C(=O)N3CCC(OC)CC3)nn(Cc3cccc(C(F)(F)F)c3)c2n1	CAMK2D (Homo sapiens, UniProt Q13557)	kinase activity, inhibitor	–	1 µM	baseline: untreated control	93%
Cc1cc(Nc2cc(N3CCN(C)CC3)nc(Sc3ccc(NC(=O)C4CC4)cc3)n2)[nH]n1	CDC42BPA (Homo sapiens, UniProt Q5VT25)	kinase activity, KinaseProfiler	–	0.03 µM, species human	baseline: control	130%
O=C(NC1CCC1)c1ccc2nc(-c3cccc(NS(=O)(=O)NCCN4CCCCC4)c3)cn2c1	PRKACB	enzyme activity	–	10 µM	–	100%
CNC(=O)c1cc(Oc2ccc(NC(=O)Nc3ccc(Cl)c(C(F)(F)F)c3)cc2)ccn1	CDK2 with cyclin A2	kinase activity, inhibitor, ADP-Glo kinase	–	5 nM	–	72.4%
CC(C)(C)c1nc(-c2cccc(NS(=O)(=O)c3c(F)cccc3F)c2F)c(-c2ccnc(N)n2)s1	Protein kinase C beta type, isoform beta-I (PRKCB, Homo sapiens, UniProt P05771)	kinase activity, radiometric 33PanQinase	–	1 µM	baseline: DMSO	99%
COc1cc(-c2cncc3c2CN(C)Cc2cc(N4CCNCC4)ccc2-3)cc(OC)c1OC	PRKD1	kinase activity	–	1 µM, human enzyme, added: ATP 10 µM	baseline: DMSO control	107%
C[C@H]1[C@H](OC(=O)CCC(=O)O)O[C@@H]2O[C@@]3(C)CC[C@H]4[C@H](C)CC[C@@H]1[C@@]24OO3	Non-structural polyprotein pORF1, RNA-dependent RNA polymerase (Hepatitis E virus genotype 1, UniProt P33424)	polymerase activity, inhibitor, colorimetric	–	9.7 µM	baseline: untreated	70.2%
O=C1NC(=O)/C(=C/c2ccc(-c3ccc(F)cc3O)o2)S1	PRKD1	enzyme activity	–	10 µM	–	55%
C=CC(=O)N1CCC[C@@H](n2nc(-c3ccc(Oc4ccccc4)cc3)c3c(N)ncnc32)C1	SRMS	kinase activity, inhibitor, HotSpot radiometric	–	100 nM, added: ATP 10 µM	–	28.9 ± 0.2%
COc1cc(N2CCN(C)CC2)ccc1Nc1nc(N)n(C(=S)NCc2c(Cl)cccc2Cl)n1	TAOK2 (Homo sapiens, UniProt Q9UL54)	enzyme activity	–	10 µM	baseline: control	2.8%
CC#CC(=O)N1CCC[C@H]1c1nc(-c2ccc(C(=O)Nc3ccccn3)cc2)c2c(N)nccn12	PRKACB	kinase activity, inhibitor, HotSpot radiometric	–	100 nM, added: ATP 10 µM	–	101.7 ± 1%
COc1cc(N2CCN(C)CC2)ccc1Nc1nc(N)n(C(=O)NCc2ccccc2S(=O)(=O)C(C)C)n1	IGF1R (Homo sapiens, UniProt P08069)	enzyme activity	–	10 µM	baseline: control	0.7%
COc1cc(F)ccc1-c1ncnc(Nc2cccc(C[S@](C)(=N)=O)c2)n1	HIPK2 (Homo sapiens, UniProt Q9H2X6)	kinase activity	–	10 µM, added: 10 µM ATP	–	93%
CC(=O)Nc1c(N)nc(SCC(=O)NN)[nH]c1=O	CDK2 with cyclin A2	kinase activity	–	5 nM	–	85.4%
Nc1ncc2c(n1)-c1c([nH]c3ccc(-c4ccc(F)cc4)cc13)CCC2	TSSK2 (Homo sapiens, UniProt Q96PF2)	kinase activity, inhibitor, radiometric	–	1 µM, added: ATP at Km	–	68%
